Results collected from several papers.
Organism: Pseudomonas aeruginosa

CCCCCCCC(=O)N[C@@H](CCN)C(=O)N[C@H](C(=O)N[C@@H](CCN)C(=O)N[C@H]1CCNC(=O)[C@H]([C@@H](C)O)NC(=O)[C@H](CCN)NC(=O)[C@H](CCN)NC(=O)[C@H](CC(C)C)NC(=O)[C@@H](Cc2ccc(Br)cc2)NC(=O)[C@H](CCN)NC1=O)[C@@H](C)O — MIC (broth microdilution; PAO1, colistin-susceptible): 0.125 to 0.25 µg/mL
CN[C@H](CC(C)C)C(=O)N[C@H]1C(=O)N[C@@H](CC(N)=O)C(=O)N[C@H]2C(=O)N[C@H]3C(=O)N[C@H](C(=O)N[C@H](C(=O)NCc4cn(CCCCC(=O)N[C@H](C(=O)N[C@@H](CCN)C(=O)N[C@H]5CCNC(=O)[C@H]([C@@H](C)O)NC(=O)[C@H](CCN)NC(=O)[C@H](CCN)NC(=O)[C@H](CC(C)C)NC(=O)[C@@H](CC(C)C)NC(=O)[C@H](CCN)NC5=O)[C@@H](C)O)nn4)c4cc(O)cc(O)c4-c4cc3ccc4O)[C@H](O)c3ccc(c(Cl)c3)Oc3cc2cc(c3O[C@@H]2O[C@H](CO)[C@@H](O)[C@H](O)[C@H]2O[C@H]2C[C@](C)(N)[C@H](O)[C@H](C)O2)Oc2ccc(cc2Cl)[C@H]1O — MIC (broth microdilution; ATCC 27736, cation-adjusted Mueller-Hinton broth): 6 µM
CC(C)C[C@H](NC(=O)[C@H](CCCCN)NC(=O)[C@H](C)NC(=O)[C@H](CC(C)C)NC(=O)[C@H](CCCCN)NC(=O)[C@H](CCC(N)=O)NC(=O)[C@H](CCCCN)NC(=O)[C@H](CC(C)C)NC(=O)[C@H](CCCCN)NC(=O)[C@H](CCC(N)=O)NC(=O)[C@H](CC(C)C)NC(=O)[C@H](CCCCN)NC(=O)[C@H](C)NC(=O)[C@H](CCCCN)NC(=O)[C@H](CC(C)C)NC(=O)[C@H](CCCCN)NC(=O)[C@H](C)NC(=O)[C@H](CC(C)C)NC(=O)[C@H](CCCCN)NC(=O)[C@H](CCC(N)=O)NC(=O)[C@@H](N)CCCCN)C(N)=O — MIC (ATCC 27853; 24 h): 12.3 µM
O=C(O)CN(CC(=O)O)CP(=O)(O)O — MIC (IMP-7 producer; 32 µg/mL, MIC of meropenem, added: meropenem): 16 µg/mL
CN[C@H](CC(C)C)C(=O)N[C@H]1C(=O)N[C@@H](CC(N)=O)C(=O)N[C@H]2C(=O)N[C@H]3C(=O)N[C@H](C(=O)N[C@H](C(=O)NCC(N)=O)c4cc(O)cc(O)c4-c4cc3ccc4O)[C@H](O)c3ccc(c(Cl)c3)Oc3cc2cc(c3O[C@@H]2O[C@H](CO)[C@@H](O)[C@H](O)[C@H]2O[C@H]2C[C@](C)(NCc3ccc(OCc4cn(CC(=O)N[C@H](C(=O)N[C@@H](CCN)C(=O)N[C@H]5CCNC(=O)[C@H]([C@@H](C)O)NC(=O)[C@H](CCN)NC(=O)[C@H](CCN)NC(=O)[C@H](CC(C)C)NC(=O)[C@@H](CC(C)C)NC(=O)[C@H](CCN)NC5=O)[C@@H](C)O)nn4)c(OC)c3)[C@H](O)[C@H](C)O2)Oc2ccc(cc2Cl)[C@H]1O — MIC (broth microdilution; ATCC 13883, cation-adjusted Mueller-Hinton broth): 6 µM
CC[C@H](C)[C@H](NC(=O)[C@@H](CCCNC(=N)N)NC(=O)[C@H](CCCNC(=N)N)NC(=O)[C@H](Cc1ccc(O)cc1)NC(=O)[C@H](Cc1c[nH]c2ccccc12)NC(=O)[C@H](CCCNC(=N)N)NC(=O)[C@@H]1CCCN1C(=O)[C@H](CCCNC(=N)N)NC(=O)[C@@H]1CCCN1C(=O)[C@H](CC(C)C)NC(=O)[C@H](Cc1ccc(O)cc1)NC(=O)[C@@H]1CCCN1C(=O)[C@@H]1CCCN1C(=O)[C@H](CCCCN)NC(=O)[C@H](CC(=O)O)NC(=O)[C@@H](N)C(C)C)C(=O)N[C@@H](Cc1ccc(O)cc1)C(=O)N[C@@H](CC(N)=O)C(=O)N[C@H](CCCNC(=N)N)C(N)=O — MIC (broth microdilution; DSM 1117; 18 h, 37 °C, 25% MHB2): 128 µg/mL
CN[C@@H]1[C@H](O)[C@H](NC)[C@H]2O[C@]3(O)[C@H](O[C@@H]2[C@H]1O)O[C@H](C)C[C@H]3NC(=O)Cc1cscn1 — MIC (microbial growth, broth dilution; PAO1): > 200 µg/mL
CCn1ccn(CC)c1=[Se] — MIC (broth microdilution; carbapenem-resistant BAA-2108; 24 h): > 40 µM
C#CCOc1ccc(CN[C@@]2(C)C[C@H](O[C@H]3[C@H](Oc4c5cc6cc4Oc4ccc(cc4Cl)[C@@H](O)[C@@H](NC(=O)[C@@H](CC(C)C)NC)C(=O)N[C@@H](CC(N)=O)C(=O)N[C@H]6C(=O)N[C@H]4C(=O)N[C@H](C(=O)N[C@H](C(=O)N[C@@H](CCCNC(=N)N)C(N)=O)c6cc(O)cc(O)c6-c6cc4ccc6O)[C@H](O)c4ccc(c(Cl)c4)O5)O[C@H](CO)[C@@H](O)[C@@H]3O)O[C@@H](C)[C@H]2O)cc1OC — MIC (broth microdilution; ATCC 10145, cation-adjusted Mueller-Hinton broth; 18 to 20 h, 37 °C, 0.002% polysorbate 80): > 128 µg/mL

A few entries again:
O=C(O)CN(CC(=O)O)CP(=O)(O)O — MIC (IMP-7 producer; 32 µg/mL, MIC of meropenem, added: meropenem): 16 µg/mL
